Measured values from different studies.
Each numbered part is a random draw from the data of one study; scales do not carry over between parts. Substitutions count along the parent as printed.

Study 1 — method: aptamer microarray, sandwich; molecule type: DNA with 2'F-ANA; sample: in vitro; tested at: 200 nM; with: Cy3 exosite-II aptamer, 400 nM; direction: higher = stronger binding; quantity: mean fluorescence intensity; oligonucleotide: GGTTGGTGTGGTTGG
Target: Prothrombin, mature alpha-thrombin (F2, Homo sapiens, UniProt P00734)
Setting: whole 15-mer aptamer, many near background
2'F-ANA at 1 2 4 7 8 9 10 13 15: 50.7 a.u.
2'F-ANA at 1 6 10 11 12 13 14 15: 50.8 a.u.
2'F-ANA at 2 4 5 7 11 12 13 14 15: 59.7 a.u.
2'F-ANA at 1 2 4 6 8 12 13 14 15: 58.1 a.u.
2'F-ANA at 1 3 4 5 6 10 13 15: 44.3 a.u.
2'F-ANA at 1 4 5 6 8 9 10 12 14: 44.7 a.u.
2'F-ANA at 1 2 3 6 7 14: 66.1 a.u.
2'F-ANA at 1 2 3 5 6 7 8 13 14: 145 a.u.
2'F-ANA at 3 4 10 12: 366 a.u.
2'F-ANA at 1 4 7 10 11 12: 56.4 a.u.
2'F-ANA at 1 5 8 10 12 14 15: 51.3 a.u.
2'F-ANA at 1 2 3 4 8 11 14 15: 81 a.u.
2'F-ANA at 1 2 5 6 7 8 10 11 12 13: 69.7 a.u.
2'F-ANA at 3 7 8 9 10 11 12 13: 607 a.u.
2'F-ANA at 5 7 8 9 11 12 13 15: 95.7 a.u.
2'F-ANA at 3 6 11 12 13 14 15: 498 a.u.
2'F-ANA at 2 4 5 8 9 10 12 15: 56.2 a.u.
2'F-ANA at 2 5 8 15: 79.7 a.u.
2'F-ANA at 1 2 3 4 5 6 7 9 10 12 14 15: 49.6 a.u.
2'F-ANA at 1 8 9 12 14 15: 78.3 a.u.

Study 2 — target: CCNB2, cyclin fold, Cln2 fusion (human); method: yeast growth competition, sequencing; sample: yeast; setting: weak parent motif; reference: not given; direction: higher = stronger binding; quantity: normalised enrichment score
Starting sequence: INSM1 docking peptide (human); PKAIRKLHFEDEV
L7R: 0.745
F9I: 0.0598
I4M: 0.276
E10L: 0.0499
F9G: -0.058
K6D: 0.159
K2F: 0.0673
H8S: 0.315
I4L: 0.582
D11E: 0.406
L7I: 0.645
A3Q: 0.0083
E10P: 0.417
H8E: 0.126
K2W: 0.023
A3R: 0.794
K2H: 0.261
R5I: -0.293
K2Y: -0.0332
I4R: 1.04
A3N: -0.0118
L7F: 0.156
E12Q: 0.0938
E12G: 0.167

Study 3 — method: RNA Bind-n-Seq; molecule type: RNA; sample: in vitro; tested at: 200 nM; setting: whole 134-nt RNA, ends assumed; with: 150 mM KCl; reference: input library; direction: higher = stronger binding; quantity: log2 enrichment
Target: Fragile X messenger ribonucleoprotein 1, C-terminal low-complexity region (Fmr1, Mus musculus, UniProt P35922)
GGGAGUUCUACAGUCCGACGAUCAAGUCCUGUGCUACACAUCGUAUGUACCGAAUCGGGAAAGGGUUUUUGGGAAAGGGAAAGUAUUAUGUUACGCCGUUCGGAUCUGCACUUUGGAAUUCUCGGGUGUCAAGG: 0.399
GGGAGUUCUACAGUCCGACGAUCUUUUACAUUUAUACACAUGUAUUGGCUUCCUUUUACACUAUUAGGCGGUCAAGAAGCAGAUCGAGACGGCGGUCACAUUCUAAGUCUAGGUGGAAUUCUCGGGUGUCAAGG: 0.253
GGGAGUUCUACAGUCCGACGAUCUUCAGUUUCCCAAACCUGAGAUGAUCUGUCAGCUGGAGAACUGGGACGAGCAGUGGAUCCUGGAUCUACCGAGAACUGGGAAUAGGAAGGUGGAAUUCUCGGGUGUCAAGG: 0.206
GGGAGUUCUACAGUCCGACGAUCCACAGACAACACGCACCCACACAGAAACAGAGGGAAGGGGUUGGGAUGGGGACAGGGUGCACAGCAGGGCGGGGUAGGACCCCAGCCCCUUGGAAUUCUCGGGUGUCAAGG: 1.22
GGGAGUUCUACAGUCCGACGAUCGCAGGAAGUAAAAACAAAUGGAAAUGCUUCGGAUAGUGGAAAGGGUGGGGGUUGCUAAGGAAAGGGUGGGAUGGGAGUGGGUAAAGAGUUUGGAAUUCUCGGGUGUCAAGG: 0.203
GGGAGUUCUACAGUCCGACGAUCGCAGGAAGUAAAAACAAAUGGAAAUGCUUCGGAUAGUGGCAGGGGUGGGGGUUGCUAAGGAAAGGGUGGGAUGGGAAUGGGUAAAGAGUUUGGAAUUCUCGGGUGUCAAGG: 0.127
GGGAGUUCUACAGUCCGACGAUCGCAGGAAGUAAAAACAAAUGGAAAUGCUUCGGAUAGUGGCAGGGGUGGGGGUUGCUAAGGAAAGGGUGGGAUGGGAGUGGGUGAAGAGUUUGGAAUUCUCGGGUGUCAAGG: 0.0966
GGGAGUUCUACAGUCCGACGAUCCAAGUCCUGUGCUACACAUCGUAUGUACCGAAUCGGUGGAAAAAGGAAAAAAAGGAAAGUAUUAUGUUACGCCGUUCGGAUCUGCACUUCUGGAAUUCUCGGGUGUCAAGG: -0.492
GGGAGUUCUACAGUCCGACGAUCGCAGGAAGUAAAAACAAAUGGAAAUGCUUCGGAUAGUGGCAGGGGUGGGGGUUGUUAAGGAAAGGGUGGGAUGGGAGUGGGUAAAGAGUUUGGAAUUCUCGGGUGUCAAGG: 0.00248

Study 4 — method: protein binding microarray; molecule type: double-stranded DNA, one strand shown; sample: in vitro; tested at: not given; reference: not given; direction: higher = stronger binding; quantity: E-score
Target: Histone acetyltransferase KAT6A, winged helix 1, GST fusion (KAT6A, Homo sapiens, UniProt Q92794, residues 1-85)
Setting: 8-mer, flanks averaged, mean of 2 arrays, mostly near background
Target sequence (chain): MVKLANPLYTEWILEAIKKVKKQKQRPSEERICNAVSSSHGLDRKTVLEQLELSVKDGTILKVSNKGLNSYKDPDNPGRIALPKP
CATTCTAA: -0.252
CGGAACAG: 0.0491
ATATCCTC: -0.268
ACATTGTA: -0.115
TACATCTA: -0.17
AGTAGGGC: 0.0147
GACACTGA: -0.0889
AAGTAGAA: -0.251
ACTGAAAA: -0.153
GATATGGC: 0.208
CACTGCCA: -0.116
AAGCGCGT: 0.39
ATATCGAA: -0.0943
ACCTATCG: -0.0158
AACTGTAA: -0.0436
CAATCCAA: -0.141
CACAGAAC: -0.0477
ACTGTTAG: -0.0148
CAGTTCAG: -0.0282
CCACTGTC: -0.239
TGACTGAA: -0.103
TCCACTCA: -0.227

Some of these lines once more (study 1):
2'F-ANA at 2 4 5 7 11 12 13 14 15: 59.7 a.u.
2'F-ANA at 1 2 4 6 8 12 13 14 15: 58.1 a.u.
2'F-ANA at 1 3 4 5 6 10 13 15: 44.3 a.u.
2'F-ANA at 1 4 5 6 8 9 10 12 14: 44.7 a.u.
2'F-ANA at 1 2 3 6 7 14: 66.1 a.u.
2'F-ANA at 1 2 3 5 6 7 8 13 14: 145 a.u.
